Measurements pooled from the literature.
A part holds a random share of what one study measured. Positions count from the first letter of the parent shown.

Block 1
Target: RNA binding protein fox-1 homolog 2, RRM domain, GST-SBP tag (RBFOX2, Homo sapiens, UniProt O43251-10, residues 100-194)
Method: RNA Bind-n-Seq
Molecule type: RNA
Medium: in vitro
Concentration: 365 nM
Setting: natural RNA segment, single round, ends assumed
Baseline: no-protein control
Reading: higher = stronger binding
Constant ends, left off below: GGGAGUUCUACAGUCCGACGAUC … UGGAAUUCUCGGGUGCCAA
Target sequence (chain): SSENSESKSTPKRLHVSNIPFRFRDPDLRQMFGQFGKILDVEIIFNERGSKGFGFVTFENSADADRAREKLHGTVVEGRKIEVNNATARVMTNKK
| Oligonucleotide | RBNS enrichment (R) |
| --- | --- |
| GCAAACAGAUGAGUAAUUUUUUAGCAACACCUGAAAAUAUACUAAACUUUCCUAGAUAAACUUUAAGGUUUCUAUACUGAGGCUUUUAUAAUGAACGCACCUCGUUAAGU | 0.644 |
| AUGGGCAGAGUGGAGCUGACACUCUCUCCUCAGGCAGCCUCCUCAGCCUUUAUUCGUCAACGGCCUCUGCUCAGCCAGGCCCUUCCAGACAAAAGGCACUGAGGAACUUG | 0.354 |
| CUGCCACCAGGCUCAGCCCACCCCUCCACCUCUCUCUCGAUUUCUCUCUCUCCCCCUCAGCAUCUUCCCGCUGAGAGUGGUGGGGAAGAGCCUUGUCUUCUUAGCUGUCA | 1.47 |
| CUCCUAAACCAAGCAGAAUUUUGGGAAGAGAUAACAGCCAGGGAGAUAUUGCCCAUGAUUCUCACUUUUUCUUUGCCUGGCAUCUAAGCAGGAACCCAUUGUGGAGUAGA | 0.984 |
| CAGACAGGGCCUAGCUUUCAUUUGACACACAGACUACAGCCAGAAGCCCAUGGAGCAGGGAUGUCACGUCUUGAAAAGCCUAUUAGAUGUUUUACAAAUUUAAUUUUGCA | 1.29 |
| AUCAAAACCUUGAGGCUAAUAUUACACUCAGGCCACACUCAGCACUUGCCUCCUCUUGUUUACUGCCUUGUAUUGUAGUUAUGUGUGUAUAUGUCUGUCUUUCUCAUUAG | 1.18 |
| AGCCAGUUCCAUCACUCAGGUAGUGCCUGAAUCAACCUUCAGAGCCUGAUUAGUCACAUAUCAUUGGAGGUCAAACGCCAUUUCCAGUGGCCUCUCUGUGUGCCCACAUG | 0.334 |
| GAUCUGUUAGGAAUAAGAUUGAUAUUGUAUUGUGUGUAACCUGCACAAUGUGGAAAGCUGAUAUACCUGUGCAAAAUCUUUGCCUCUGUGCUGUCAGUGUGAUGUGCUUU | 0.454 |
| GGGCUCAUUUUGGUUUUAUUGAAAUGCCAUCUAAAUAUGUUAGCUGUAGAUAGGAGGUGCUUCUGGUGAACUGAAAGUGUCUGACUCGUGAGGAACAUGGUAGGUUCCUC | 0.266 |
| AGAAUUUAUAAAUCACAUCUCAUCAAUACUAACAAAUGACAUUUUGAAAGGAAAGAUUGGGUUGCAUAGUCAUAGUACAUGAAUCCAAUCAAAGAUGAUACAAUAUUUCC | 0.336 |
| CUCCUCCAUCAGAUGUCUGGGCCUCCUCCAUCAGAUGCCUGGGCCUCCUCCAUCAGAUGCCUGGGCCUCCUCCAUCAGAUGUCUGGGCCUCCUCCAUCAGAUGCCUGGGC | 0.395 |
| UAGUAACAAUGCUGCAUCUAGAUUGGAGUGCUGCACAAACAAACAUAAGAGCAAAGCAAAACUGUAUCACAUAGGGUUUUUGGUCACUCACAACCUGAAUUCACCACAGC | 0.678 |

Block 2
Target: CCND1, cyclin fold, Cln2 fusion (human)
Method: yeast growth competition, sequencing
Medium: yeast
Setting: weak parent motif
Baseline: not given
Reading: higher = stronger binding
Parent: CDKN1B docking peptide (human); PSACRNLFGPVDH; partner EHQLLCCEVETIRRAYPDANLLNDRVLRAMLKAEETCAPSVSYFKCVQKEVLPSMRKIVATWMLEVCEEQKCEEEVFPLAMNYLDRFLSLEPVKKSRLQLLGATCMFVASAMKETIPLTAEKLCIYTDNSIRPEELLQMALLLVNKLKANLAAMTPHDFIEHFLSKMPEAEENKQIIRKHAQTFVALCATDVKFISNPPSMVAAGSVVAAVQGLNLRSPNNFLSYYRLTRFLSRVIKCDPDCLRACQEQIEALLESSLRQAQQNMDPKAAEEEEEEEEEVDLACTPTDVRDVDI
| Variant | normalised enrichment score |
| --- | --- |
| PSACRNLFHPVDH [G9H] | 0.163 |
| PSAARNLFGPVDH [C4A] | 0.899 |
| PTACRNLFGPVDH [S2T] | 0.566 |
| PSACRNKFGPVDH [L7K] | 0.00267 |
| LSACRNLFGPVDH [P1L] | 0.0428 |
| SSACRNLFGPVDH [P1S] | 1.35 |
| PSACRNLFGPVEH [D12E] | 0.527 |
| PSACRNLMGPVDH [F8M] | 0.105 |
| PSACRNLFGMVDH [P10M] | 0.187 |
| ESACRNLFGPVDH [P1E] | 0.86 |
| PSARRNLFGPVDH [C4R] | 0.562 |
| PSACRNLTGPVDH [F8T] | 0.173 |
| PSANRNLFGPVDH [C4N] | 0.588 |
| PSACRNLFDPVDH [G9D] | 0.731 |
| PSACKNLLGPVDH [R5K F8L] | 0.183 |
| PSACGNLFGPVDH [R5G] | 0.273 |
| PSACRNLFGPVKH [D12K] | 0.536 |
| PSACRNAFGPVDH [L7A] | -0.00693 |
| PSACRNLFGPVDP [H13P] | 0.73 |
| PSACRNPFGPVDH [L7P] | -0.0163 |
| PSACRNLNGPVDH [F8N] | 0.207 |
| PSACRHLFGPVDH [N6H] | 0.233 |
| PSACRNLFGWVDH [P10W] | 0.588 |
| PSACRNLFGPVDV [H13V] | 0.448 |
| PSACRNLFGPVGH [D12G] | 0.676 |

Block 3
Target: Ras GTPase-activating protein-binding protein 1, RRM domain (G3BP1, Homo sapiens, UniProt Q13283)
Sequence of UniProt Q13283 (whole entry, looked up): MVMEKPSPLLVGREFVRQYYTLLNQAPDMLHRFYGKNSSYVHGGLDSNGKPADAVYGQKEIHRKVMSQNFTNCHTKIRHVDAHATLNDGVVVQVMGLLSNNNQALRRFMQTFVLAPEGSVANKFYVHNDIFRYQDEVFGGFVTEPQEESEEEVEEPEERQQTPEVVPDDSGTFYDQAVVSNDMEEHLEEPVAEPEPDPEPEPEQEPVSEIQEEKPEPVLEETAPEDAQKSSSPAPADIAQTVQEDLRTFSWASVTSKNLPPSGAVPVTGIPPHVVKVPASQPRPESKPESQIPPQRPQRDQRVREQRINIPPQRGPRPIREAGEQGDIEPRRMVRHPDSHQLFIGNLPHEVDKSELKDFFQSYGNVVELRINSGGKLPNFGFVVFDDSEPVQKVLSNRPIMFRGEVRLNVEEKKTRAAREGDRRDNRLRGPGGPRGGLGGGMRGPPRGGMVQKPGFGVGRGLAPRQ
Method: RNA Bind-n-Seq
Molecule type: RNA
Medium: in vitro
Concentration: 1 µM
Setting: whole 134-nt RNA, ends assumed
Added: 150 mM KCl
Baseline: input library
Reading: higher = stronger binding
Constant ends, left off below: GGGAGUUCUACAGUCCGACGAUC … UGGAAUUCUCGGGUGUCAAGG
| Oligonucleotide | log2 enrichment |
| --- | --- |
| UGCUAGGACUUGAUGGAUCACUAGUUUUUCUGGUAAGUAAAACUAAUUUUUUUUUUUUUUUUUUGAGACGGAAUCUCACUCUGUCACCCA | 0.563 |
| UUUGAGGUCAAACGCCGCGGGGAACUGCAGCUGAUUAAGAUCUUCCAAUCCUCGGUGUUUGAGGCCUUCCUCAAGGGCAGCACGCUGGAA | -0.286 |
| GCAGGAAGUAAAAACAAAUGGAAAUGCUUCGGAUAGUGGCAGGGGUGGGGGUUGCUGAGGAAAGGGUGGGAUGGGAGUGGGUAAAGAGUU | 1.35 |
| CAAGUCCUGUGCUACACAUCGUAUGUACCGAAUCGGGUUUGGGUUUGGGGUUUGGAAAGUAUUAUGUUACGCCGUUCGGAUCUGCACUUC | -0.422 |
| UUGGAUGAAGAUGGCAAAGUCCUGACCCCGGAGGAGCUGCUCUACCGGGUAAGGGGGCCUCCUCUGCCAGACCCUAGAGACCUCUCUGGG | -0.715 |
| UCAAGUCCUGUGCUACACAUCGUAUGUACCGAAUCGGAAAAAGGUUUUUGGAGGAAAGUAUUAUGUUACGCCGUUCGGAUCUGCACUUCC | -0.204 |
| UCAAGUCCUGUGCUACACAUCGUAUGUACCGAAUCGGUUUGGAGGUUUUUUUGGAAAGUAUUAUGUUACGCCGUUCGGAUCUGCACUUCC | -0.216 |
| UCCUGUGCUACACAUCGUAUGUACCGAAUCGGGGAAAAAAAGGGGAAAGGGGAAAGGGGAAAGUAUUAUGUUACGCCGUUCGGAUCUGCA | 1 |
| GUCCUGUGCUACACAUCGUAUGUACCGAAUCGGAAAAAAGGAAAAAAGGGGAAAAAAGGAAAGUAUUAUGUUACGCCGUUCGGAUCUGCA | 0.0736 |
| AAGUCCUGUGCUACACAUCGUAUGUACCGAAUCGGCCCCGGGCCCCGGGCCCCGGGAAAGUAUUAUGUUACGCCGUUCGGAUCUGCACUU | -0.815 |
| GUCCUGUGCUACACAUCGUAUGUACCGAAUCGGGGUUUUUGGGGUUUUUGGUUUUUGGGAAAGUAUUAUGUUACGCCGUUCGGAUCUGCA | -0.283 |
| UUGAGAUUGGGUGGAUUCCUAUCAUCUGGAAUUCUGACUCCUCGGGUCUCCUUCUCUAGGUAGCCCAGCAGCAGUGAAGAUGCAGACUGA | -0.415 |
| GUCCUGUGCUACACAUCGUAUGUACCGAAUCGGGUGGGAAAAAAAGGGUUUUUUUGGGAAAGUAUUAUGUUACGCCGUUCGGAUCUGCAC | 0.349 |
| UGGGAGAUGGAUUUUGUUUAUUUUUUUAGCUCAUUUCCAGGGGUGGGAAUUUUUUUUUAAUAUGUGUCAUGAAUAAAGUUGUUUUUGAAA | 1.81 |

Block 4
Target: RING finger protein unkempt homolog, zinc fingers 1-6, GST-SBP tag (UNK, Homo sapiens, UniProt Q9C0B0, residues 30-357)
Method: RNA Bind-n-Seq
Molecule type: RNA
Medium: in vitro
Concentration: not given
Setting: RNA with constant flanks, human and mouse sites, ends assumed
Baseline: input RNA pool
Reading: higher = stronger binding
Constant ends, left off below: GGGAGUUCUACAGUCCGACGAUC … CAACAGAGGAUUGAGCAUCA
Target sequence (chain): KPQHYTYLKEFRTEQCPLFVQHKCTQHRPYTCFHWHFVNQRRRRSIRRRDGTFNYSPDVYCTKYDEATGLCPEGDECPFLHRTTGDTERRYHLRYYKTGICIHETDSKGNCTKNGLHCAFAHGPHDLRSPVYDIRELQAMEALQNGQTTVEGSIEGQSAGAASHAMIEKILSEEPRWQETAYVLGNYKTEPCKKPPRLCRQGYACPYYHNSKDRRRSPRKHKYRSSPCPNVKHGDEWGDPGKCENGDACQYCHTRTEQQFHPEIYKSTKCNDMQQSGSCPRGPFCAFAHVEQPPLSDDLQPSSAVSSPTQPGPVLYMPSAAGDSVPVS
| Oligonucleotide | bound/input enrichment |
| --- | --- |
| UUUUUAAAACCUGAUGAUAUUCAAUACUUUGAUAAACUAUUGGUUGAUGUUGAUGAAUCAACACUUAGUCCAGAAGAGCAAAAAGAGAGAAAAAUAAUGAAGUUGCUUUUAAAAAUUAAG | 0.341 ratio |
| GAGCAAGAAUUUCAAACAUGCCUGACAAUCUGAUCUCUCUUGAAAUAAAGAGGGAUGCCAUUAGUCUAGACGUCGUUGUGAAAUCCUUGAGAUAUAAAGUGUGACUGGGUGUUUUCAAGA | 0.174 ratio |
| GAUGAGGCCCAGAAGCCUUACCUGGUACAACGGAGAGGAGCUGAAUUUGCUUUGACAACUAUAGUAAAGCAUUUUGGUGGUGAAAUGGCAGUGAAGUUGCCACAUCUCUGGGAUGCUAUG | 0.1 ratio |
| GAGAAGCCAAGUCAGCUUUGUUGUGAUUUGAUUUUUUUUAAAAAACUCUUGUACAAAACUGAUCUAAUUCUUCACUCCUGCUCCAAGGGCUGGGCUGUGGGUGGGAUACUGGGAUUUUGG | 0.501 ratio |
| GGUGGCACCCUGGAUCUGACCCUGAUCCGUGCCCGCCUCCAGGAGAAGUUGUCACCUCCCUACAGCUCCCCACAGGAGUUUGCCCAGGAUGUGGGCCGCAUGUUCAAGCAAUUCAACAAG | 0.0785 ratio |
| CGCUUGGAUGAGGCGGGUGUCACAGAUGAAGUGCUAGAUUCUGCCAUGCAAGCCUUCCUUCUGGAGGUCAUUGUUAAACAUGGGGAGCCGGCACCUUAUUUAUGUAACAAAGAUCCGUUU | 0.0835 ratio |
| GUGCUGGGAGUCGGGGACUGAACCUGACUCUUCUUGUGAUUAAAACAGUUCUCAUCAUAGUGCACUGCACAGUUGAGCAGGGGUAUUUUUCUUCUCCCCAAAGUCCCCCCGGCCCCGUCU | 0.733 ratio |
| UCCGCUCGGAAAAUGCGCCUGGGAGAUGCUGUUGAACAGGGUGUGAUUAAUAACACAGUAUUAGGCUAUUUCAUUGGCCGCAUCUACCUCUACCUCACGAAGGUUGGAAUAUCUCCAGAU | 0.137 ratio |
| AGUGAAAAUAUUUCUGCAGCUAUUCAAGCUAAUGGUGAGAUGGUUACAAAGCAACCAUUGAUUAGAAGUAUGCGGACAGUAAAAAGGGAAACUUUAAAGUUAAUAUCUGGUUGGGUGAGC | 0.438 ratio |
| GCGGGCAUCCUCUCUGCCCUGGGCUCCAAGACAUCUCUUAUGAUCAGGCAUGAUAAGGUACUGAGAAAUUUUGAUUCACUCAUCAGUUCCAACUGCACCGAGGAACUGGAGAAUGCCGGC | 0.206 ratio |
| AGCCACUUCAACCACUGAUGGUCAUUAAAACUCCUUUUUCACUAACUGAACCAGCAGGUCUUAGGGCUGGAGACAGCAUUUGAUCAUAGUGGACGUUGUUACAAAGACACACUGAGUCUA | 0.221 ratio |

For quick reference, copied from above (block 2):
| Variant | normalised enrichment score |
| --- | --- |
| PSACRNLTGPVDH [F8T] | 0.173 |
| PSANRNLFGPVDH [C4N] | 0.588 |
| PSACRNLFDPVDH [G9D] | 0.731 |
| PSACKNLLGPVDH [R5K F8L] | 0.183 |
| PSACGNLFGPVDH [R5G] | 0.273 |
| PSACRNLFGPVKH [D12K] | 0.536 |
| PSACRNAFGPVDH [L7A] | -0.00693 |
